# Experimental data gathered from unrelated publications.
# The chains behind the UniProt entries cited, without tags or fusion partners. Residues count along the entry.
# UniProt O15151, 23-111 limits assumed: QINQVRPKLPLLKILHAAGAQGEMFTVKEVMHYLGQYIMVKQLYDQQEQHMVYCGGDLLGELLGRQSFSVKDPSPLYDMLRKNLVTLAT
# UniProt P21462, whole entry: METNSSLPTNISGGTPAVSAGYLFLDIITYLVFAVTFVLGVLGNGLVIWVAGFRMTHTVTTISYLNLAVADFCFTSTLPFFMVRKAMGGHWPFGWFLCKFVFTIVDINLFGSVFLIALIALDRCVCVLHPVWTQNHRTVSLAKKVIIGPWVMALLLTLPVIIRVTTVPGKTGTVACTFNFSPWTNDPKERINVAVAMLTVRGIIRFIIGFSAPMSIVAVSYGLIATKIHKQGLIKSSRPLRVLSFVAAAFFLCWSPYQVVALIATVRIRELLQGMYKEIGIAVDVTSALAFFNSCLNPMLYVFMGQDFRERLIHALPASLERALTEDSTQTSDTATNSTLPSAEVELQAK
# UniProt P28340, whole entry: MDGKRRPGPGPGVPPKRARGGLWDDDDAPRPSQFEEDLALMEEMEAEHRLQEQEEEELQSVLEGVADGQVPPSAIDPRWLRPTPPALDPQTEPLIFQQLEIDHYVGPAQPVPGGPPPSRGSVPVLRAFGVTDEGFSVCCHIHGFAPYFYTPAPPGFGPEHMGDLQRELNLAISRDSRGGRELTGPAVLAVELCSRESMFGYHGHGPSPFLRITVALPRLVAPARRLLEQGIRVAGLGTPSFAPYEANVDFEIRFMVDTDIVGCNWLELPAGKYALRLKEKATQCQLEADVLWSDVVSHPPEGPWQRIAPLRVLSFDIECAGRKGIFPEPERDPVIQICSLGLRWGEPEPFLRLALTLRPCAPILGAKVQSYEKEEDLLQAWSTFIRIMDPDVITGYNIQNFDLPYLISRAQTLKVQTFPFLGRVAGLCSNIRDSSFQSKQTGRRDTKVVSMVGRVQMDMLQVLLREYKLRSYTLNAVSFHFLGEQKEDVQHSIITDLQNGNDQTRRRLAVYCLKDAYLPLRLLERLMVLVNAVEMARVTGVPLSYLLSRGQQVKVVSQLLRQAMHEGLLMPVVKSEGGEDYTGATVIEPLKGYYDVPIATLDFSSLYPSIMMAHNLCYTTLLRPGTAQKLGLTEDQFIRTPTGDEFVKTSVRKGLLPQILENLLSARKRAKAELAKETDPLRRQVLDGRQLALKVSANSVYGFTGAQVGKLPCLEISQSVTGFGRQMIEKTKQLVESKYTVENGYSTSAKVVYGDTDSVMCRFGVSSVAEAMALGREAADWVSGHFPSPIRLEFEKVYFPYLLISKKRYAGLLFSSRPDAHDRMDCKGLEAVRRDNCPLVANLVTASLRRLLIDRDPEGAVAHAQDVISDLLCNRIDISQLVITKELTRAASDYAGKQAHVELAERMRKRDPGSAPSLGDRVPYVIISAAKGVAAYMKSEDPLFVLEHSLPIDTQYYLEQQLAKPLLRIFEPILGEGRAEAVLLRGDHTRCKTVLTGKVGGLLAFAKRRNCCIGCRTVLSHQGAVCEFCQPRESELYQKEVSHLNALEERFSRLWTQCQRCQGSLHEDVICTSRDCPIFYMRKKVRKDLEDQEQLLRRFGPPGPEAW
# UniProt P50406, whole entry: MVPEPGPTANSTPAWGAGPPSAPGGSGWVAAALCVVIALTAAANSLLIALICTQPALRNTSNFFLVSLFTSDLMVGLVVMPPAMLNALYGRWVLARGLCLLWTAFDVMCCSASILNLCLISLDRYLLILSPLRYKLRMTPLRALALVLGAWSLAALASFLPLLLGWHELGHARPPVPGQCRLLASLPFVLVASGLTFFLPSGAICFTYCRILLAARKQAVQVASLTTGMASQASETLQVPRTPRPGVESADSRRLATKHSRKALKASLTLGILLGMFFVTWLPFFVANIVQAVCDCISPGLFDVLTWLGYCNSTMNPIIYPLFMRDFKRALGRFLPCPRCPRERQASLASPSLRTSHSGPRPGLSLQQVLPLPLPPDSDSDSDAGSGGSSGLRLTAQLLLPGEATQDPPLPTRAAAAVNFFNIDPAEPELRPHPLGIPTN
# UniProt Q9NZQ7, 19-290 limits assumed: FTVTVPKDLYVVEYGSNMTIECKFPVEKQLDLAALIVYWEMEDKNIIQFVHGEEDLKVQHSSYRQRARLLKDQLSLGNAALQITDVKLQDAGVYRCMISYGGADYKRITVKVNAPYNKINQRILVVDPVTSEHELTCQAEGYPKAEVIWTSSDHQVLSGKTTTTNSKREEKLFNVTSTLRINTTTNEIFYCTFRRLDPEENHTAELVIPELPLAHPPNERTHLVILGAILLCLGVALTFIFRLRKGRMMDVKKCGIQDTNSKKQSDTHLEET
# UniProt Q06124, 1-535 limits assumed: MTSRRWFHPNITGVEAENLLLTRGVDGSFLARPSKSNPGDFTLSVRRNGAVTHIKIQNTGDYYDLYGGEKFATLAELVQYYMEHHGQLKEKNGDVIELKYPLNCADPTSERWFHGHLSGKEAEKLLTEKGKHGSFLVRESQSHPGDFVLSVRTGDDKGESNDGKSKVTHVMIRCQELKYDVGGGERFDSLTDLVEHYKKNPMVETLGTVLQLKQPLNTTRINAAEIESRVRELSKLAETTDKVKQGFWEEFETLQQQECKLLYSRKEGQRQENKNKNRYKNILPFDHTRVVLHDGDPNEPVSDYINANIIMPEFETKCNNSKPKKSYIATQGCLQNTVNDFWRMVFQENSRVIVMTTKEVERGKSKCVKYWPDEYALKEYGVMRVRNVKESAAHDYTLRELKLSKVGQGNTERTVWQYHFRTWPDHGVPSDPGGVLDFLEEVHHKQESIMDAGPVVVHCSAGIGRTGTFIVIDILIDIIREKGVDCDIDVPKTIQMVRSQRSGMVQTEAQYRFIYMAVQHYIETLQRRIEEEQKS
# UniProt Q9Y3Q0, whole entry: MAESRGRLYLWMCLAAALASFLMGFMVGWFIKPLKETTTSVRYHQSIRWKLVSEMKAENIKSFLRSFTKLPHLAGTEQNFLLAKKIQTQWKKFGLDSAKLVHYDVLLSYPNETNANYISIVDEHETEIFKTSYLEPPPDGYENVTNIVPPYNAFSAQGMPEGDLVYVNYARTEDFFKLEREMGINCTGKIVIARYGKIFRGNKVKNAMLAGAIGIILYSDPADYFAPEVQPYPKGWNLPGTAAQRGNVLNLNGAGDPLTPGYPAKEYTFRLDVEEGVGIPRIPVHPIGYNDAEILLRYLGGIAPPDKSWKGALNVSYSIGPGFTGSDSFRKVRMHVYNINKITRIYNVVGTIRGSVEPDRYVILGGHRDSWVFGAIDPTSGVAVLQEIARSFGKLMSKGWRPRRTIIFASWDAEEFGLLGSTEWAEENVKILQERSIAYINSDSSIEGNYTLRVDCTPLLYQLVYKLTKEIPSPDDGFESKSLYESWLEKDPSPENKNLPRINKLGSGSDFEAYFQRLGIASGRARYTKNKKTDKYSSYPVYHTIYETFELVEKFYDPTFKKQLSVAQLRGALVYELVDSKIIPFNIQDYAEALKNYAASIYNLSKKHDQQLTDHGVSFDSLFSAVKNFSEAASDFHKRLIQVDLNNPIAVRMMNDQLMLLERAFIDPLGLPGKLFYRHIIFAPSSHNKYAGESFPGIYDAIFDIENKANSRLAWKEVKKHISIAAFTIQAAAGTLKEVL
# UniProt Q16539, whole entry: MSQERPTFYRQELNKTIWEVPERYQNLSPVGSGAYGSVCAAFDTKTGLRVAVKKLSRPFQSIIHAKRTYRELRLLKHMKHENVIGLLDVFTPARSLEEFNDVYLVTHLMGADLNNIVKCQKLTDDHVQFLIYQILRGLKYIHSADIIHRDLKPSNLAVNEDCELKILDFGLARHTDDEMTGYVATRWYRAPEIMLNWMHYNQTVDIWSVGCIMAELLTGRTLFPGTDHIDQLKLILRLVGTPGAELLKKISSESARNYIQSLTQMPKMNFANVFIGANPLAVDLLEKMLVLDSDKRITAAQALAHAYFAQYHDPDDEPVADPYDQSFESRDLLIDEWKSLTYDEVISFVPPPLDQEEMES
# UniProt P02701, 25-152 limits assumed: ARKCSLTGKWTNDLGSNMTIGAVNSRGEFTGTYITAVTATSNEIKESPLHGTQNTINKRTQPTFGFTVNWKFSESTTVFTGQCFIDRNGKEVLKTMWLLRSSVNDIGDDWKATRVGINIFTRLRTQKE
# Protocols differ between the studies behind these lines. ± gives the spread as reported.
# MDM4: Protein Mdm4 (MDM4, Homo sapiens, UniProt O15151)
# FPR1: fMet-Leu-Phe receptor (FPR1, Homo sapiens, UniProt P21462)
Compound,tested on,assay,test system,setting,endpoint,result
CCOC(=O)c1c(-c2ccc(Cl)cc2Cl)n(-c2nc(-c3ccc(Cl)cc3)c3c(NC(=O)c4ccccc4)nnc-3[nH]2)[nH]c1=O,SNB-75,SRB,,10 µM,cell growth,29.2%
COc1cccc([C@@H]2N=C(c3ccc(OC)cc3OC(C)C)N(C(=O)N3CCNC(=O)C3)[C@@H]2c2ccc(Cl)cc2)c1 (relative stereo),MDM4,NMR HSQC titration,,"pH 6.5, 298 K, global fit",Kd,2400 ± 700 nM
CC/C=C\C/C=C\CCC/C=C/C=C/C=C\CCCC(=O)O,"POLD1 (Homo sapiens, UniProt P28340)","enzyme activity, inhibitor",,together with: 0.05 units polymerase,IC50,31800 ± 2000 nM
N#Cc1c(-c2ccc(Cl)cc2Cl)n(-c2nc(-c3ccc(Cl)cc3)c3c(NC(=O)c4ccccc4)nnc-3[nH]2)[nH]c1=O,SN12C,SRB,,10 µM,cell growth,32.5%
c1cnc2c(N3CCN(CCCN4CCN(c5cccc6sccc56)CC4)CC3)cccc2c1,"HTR6 (Homo sapiens, UniProt P50406)",binding,,,Ki,33.1 ± 5.8 nM
CCc1cc2c(=O)c(-c3nc4ccccc4n3C)c(C)oc2cc1OC(C)=O,FPR1,binding,,single representative run,Ki,37 nM
COc1nc(OCc2cccc(-c3ccccc3)c2C)ccc1CNCCNC(=O)CCCc1cn(CCOCCC(=O)N[C@@H](CC(=O)O)C(=O)N[C@@H](Cc2cnc[nH]2)C(=O)N[C@@H](CC(C)C)C(=O)N[C@@H](C)C(=O)N[C@@H](CO)C(=O)N[C@@H](CC(C)C)C(=O)N[C@@H](Cc2c[nH]c3ccccc23)C(=O)N[C@@H](Cc2c[nH]c3ccccc23)C(=O)NCC(=O)N[C@H](C(=O)N[C@@H](CCC(=O)O)C(=O)N[C@@H](CC(C)C)C(=O)O)[C@@H](C)O)nn1,"CD274 (Homo sapiens, UniProt Q9NZQ7)","degrader, Western blot",HepG2,24 h,DC50,2030 ± 380 nM
CC[C@H](C)[C@H](NC(=O)[C@H](CO)NC(=O)[C@H](C)NC(=O)[C@H](Cc1ccc(OP(=O)(O)O)cc1)NC(=O)[C@@H](NC(=O)[C@H](CO)NC(=O)[C@H](CC(C)C)NC(=O)CCOCCOCCOCCOCCOCCOCCOCCOCCNC(=O)[C@@H](NC(=O)[C@H](CC(C)C)NC(=O)[C@H](CC(=O)O)NC(=O)[C@H](CC(C)C)NC(=O)[C@H](CC(=O)O)NC(=O)[C@@H](NC(=O)[C@H](Cc1ccc(OP(=O)(O)O)cc1)NC(=O)[C@H](CC(N)=O)NC(=O)[C@@H](N)CC(C)C)[C@@H](C)CC)C(C)C)[C@@H](C)O)C(=O)N[C@@H](CC(N)=O)C(=O)N[C@@H](Cc1ccccc1)C(=O)N[C@@H](CCC(N)=O)C(=O)N[C@@H](CCCCN)C(N)=O,"PTPN11 (Homo sapiens, UniProt Q06124)","enzyme activity, activator",,together with: DiFMUP 10 µM,EC50,448 ± 50 nM
COc1ccc(-c2cn3cccnc3n2)cc1NC(=O)C(C)C,FPR1,binding,,single representative run,Ki,3500 nM
CC[C@@H](C(=O)NCCCOCCOCCOCCCNC(=O)c1ccc2c(c1)C1(OC2=O)c2ccc(N3CC(F)C3)cc2[Si](C)(C)c2cc(N3CC(F)C3)ccc21)[C@@H]1N=C(c2ccc(Cl)cc2)c2c(sc(C)c2C)-n2c(C)nnc21,"Bromodomain-containing protein 4, BD2 (BRD4, Homo sapiens, UniProt O60885, L387A/H437A/M452G)",fluorescence cell imaging,human cells,,Kd,159 nM
C#CCC(NC(=O)C1CC(C2CCCCC2)CN1C(=O)CSC1CCN(C(=O)CCC(NC(=O)NC(CCC(=O)O)C(=O)O)C(=O)O)CC1)C(=O)NCCOCCOCCNC(=S)Nc1ccc2c(c1)C(=O)OC21c2ccc(O)cc2Oc2cc(O)ccc21 (stereo not drawn),"N-acetylated-alpha-linked acidic dipeptidase 2 (Homo sapiens, UniProt Q9Y3Q0)",fluorescence polarization,,FITC-labelled compound,Kd,40 nM
NS(=O)(=O)c1nnc(NC(=O)C2C3CC2C3)s1 (stereo not drawn),"CA2 (Homo sapiens, UniProt P00918)","CO2 hydration, inhibitor, stopped-flow kinetics",,,Ki,30.5 nM
C=C(C)C(=O)Nc1ccc(-c2c(-c3ccc(Oc4nccc(C)n4)c(F)c3)c3c(N)ncnc3n2C)cc1,MFM-223,"cell growth, CellTiter-Glo",,120 h,IC50,5.8 nM
COc1ccc(C2=N[C@@H](c3cccc(Cl)c3)[C@@H](c3ccc(Cl)cc3)N2C(=O)N2CCNC(=O)C2)c(OC(C)C)c1 (relative stereo),MDM4,isothermal titration calorimetry,,298 K,Kd,4700 ± 1800 nM
CC(C)C[C@H](NC(=O)[C@H](C)NC(=O)[C@H](CCCNC(=N)N)NC(=O)[C@H](CCCNC(=N)N)NC(=O)[C@H](CCCNC(=N)N)NC(=O)[C@H](C)NC(=O)[C@H](CC(C)C)NC(=O)[C@H](CCCNC(=N)N)NC(=O)[C@H](CO)NC(=O)[C@H](CCCCN)NC(=O)[C@H](CO)NC(=O)Cn1cc(COC(=O)[C@]2(C)C=C(C(=O)OC(C)(C)C)C(=O)CC2)nn1)C(=O)O,"MAPK14 (Homo sapiens, UniProt Q16539)","enzyme activity, inhibitor, D-SENSOR",,0.03048 µM,normalized kinase activity,0.942
C[C@H](NC(=O)[C@@H](N)Cc1ccc(O)cc1)C(=O)NCC(=O)N[C@@H](COP(=O)(O)O)C(=O)N[C@H](C(=O)N[C@@H](CC(=O)O)C(=O)N[C@@H](CCC(=O)O)C(=O)N[C@@H](CC(N)=O)C(=O)N[C@H](C(=O)N[C@@H](CC(=O)O)C(=O)N[C@@H](CO)C(=O)N[C@@H](CCC(=O)O)C(=O)O)[C@@H](C)O)[C@@H](C)O,"Bifunctional polynucleotide phosphatase/kinase, FHA domain (Homo sapiens, UniProt Q96T60)","binding, isothermal titration calorimetry",,"400 µM, pH 7.5, 10 °C",Kd,no binding
CSCC[C@@H]1NC(=O)[C@H](Cc2ccc(O)cc2)NC(=O)[C@H](Cc2ccccc2)NC(=O)[C@H](CCC(N)=O)NC(=O)[C@@H]2CCCN2C(=O)[C@H](Cc2c[nH]cn2)NC(=O)[C@@H](NC(=O)[C@H](C)N)CSSC[C@@H](C(=O)N[C@@H](CO)C(=O)NCC(=O)O)NC(=O)[C@H](CCCNC(=N)N)NC1=O,"Avidin, deglycosylated (AVD, Gallus gallus, UniProt P02701)","binding, yeast display flow cytometry",,"30 to 300 nM, 1 h, 4 °C, together with: neutravidin-DyLight 650",apparent Kd,no binding
[2H]C(C)(CO[C@H]1CC[C@H](CN2CCN(c3ccc4c(c3F)n(C)c(=O)n4C3CCC(=O)NC3=O)CC2)CC1)NS(=O)(=O)c1ccc(Nc2ncc(C(F)(F)F)c([C@H]3CC[C@@](C)(O)CC3)n2)c(C)c1 (stereo partly drawn),"CDK2 (Homo sapiens, UniProt P24941)","degrader, AlphaLISA",MKN-1 CCNE1-amplified,14 h,DC50,39 nM
